Measurements of several laboratories.
Each numbered part is a random draw from the data of one study; scales do not carry over between parts. “And” joins repeats or separate records; there may be more than shown.
Sequence of UniProt P10721 (whole entry, unmodified, looked up): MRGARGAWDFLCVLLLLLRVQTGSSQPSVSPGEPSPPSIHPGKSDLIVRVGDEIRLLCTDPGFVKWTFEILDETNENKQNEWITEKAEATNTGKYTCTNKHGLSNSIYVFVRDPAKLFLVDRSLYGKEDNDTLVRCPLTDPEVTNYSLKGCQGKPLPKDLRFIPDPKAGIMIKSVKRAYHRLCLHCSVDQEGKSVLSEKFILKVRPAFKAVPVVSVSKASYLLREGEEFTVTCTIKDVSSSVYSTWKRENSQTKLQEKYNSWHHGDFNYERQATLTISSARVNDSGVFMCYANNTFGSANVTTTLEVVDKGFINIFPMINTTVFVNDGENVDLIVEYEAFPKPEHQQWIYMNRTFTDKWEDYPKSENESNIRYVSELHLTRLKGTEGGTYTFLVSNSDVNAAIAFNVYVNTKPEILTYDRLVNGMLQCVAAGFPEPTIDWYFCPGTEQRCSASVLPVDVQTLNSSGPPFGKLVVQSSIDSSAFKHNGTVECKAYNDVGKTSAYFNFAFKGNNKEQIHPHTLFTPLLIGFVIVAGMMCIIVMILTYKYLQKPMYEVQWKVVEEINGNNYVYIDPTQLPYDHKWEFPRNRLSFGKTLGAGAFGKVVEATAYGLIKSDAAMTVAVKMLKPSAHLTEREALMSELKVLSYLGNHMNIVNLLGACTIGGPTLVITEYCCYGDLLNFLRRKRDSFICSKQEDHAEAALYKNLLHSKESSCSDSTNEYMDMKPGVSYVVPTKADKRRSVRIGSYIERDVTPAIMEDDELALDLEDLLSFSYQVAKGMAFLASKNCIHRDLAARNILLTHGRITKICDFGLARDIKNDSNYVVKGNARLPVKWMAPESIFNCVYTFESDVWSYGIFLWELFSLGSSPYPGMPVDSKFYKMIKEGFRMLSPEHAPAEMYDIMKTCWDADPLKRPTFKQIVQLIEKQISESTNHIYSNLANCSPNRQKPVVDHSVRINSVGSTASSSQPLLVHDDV
Sequence of UniProt P54764 (whole entry, looked up): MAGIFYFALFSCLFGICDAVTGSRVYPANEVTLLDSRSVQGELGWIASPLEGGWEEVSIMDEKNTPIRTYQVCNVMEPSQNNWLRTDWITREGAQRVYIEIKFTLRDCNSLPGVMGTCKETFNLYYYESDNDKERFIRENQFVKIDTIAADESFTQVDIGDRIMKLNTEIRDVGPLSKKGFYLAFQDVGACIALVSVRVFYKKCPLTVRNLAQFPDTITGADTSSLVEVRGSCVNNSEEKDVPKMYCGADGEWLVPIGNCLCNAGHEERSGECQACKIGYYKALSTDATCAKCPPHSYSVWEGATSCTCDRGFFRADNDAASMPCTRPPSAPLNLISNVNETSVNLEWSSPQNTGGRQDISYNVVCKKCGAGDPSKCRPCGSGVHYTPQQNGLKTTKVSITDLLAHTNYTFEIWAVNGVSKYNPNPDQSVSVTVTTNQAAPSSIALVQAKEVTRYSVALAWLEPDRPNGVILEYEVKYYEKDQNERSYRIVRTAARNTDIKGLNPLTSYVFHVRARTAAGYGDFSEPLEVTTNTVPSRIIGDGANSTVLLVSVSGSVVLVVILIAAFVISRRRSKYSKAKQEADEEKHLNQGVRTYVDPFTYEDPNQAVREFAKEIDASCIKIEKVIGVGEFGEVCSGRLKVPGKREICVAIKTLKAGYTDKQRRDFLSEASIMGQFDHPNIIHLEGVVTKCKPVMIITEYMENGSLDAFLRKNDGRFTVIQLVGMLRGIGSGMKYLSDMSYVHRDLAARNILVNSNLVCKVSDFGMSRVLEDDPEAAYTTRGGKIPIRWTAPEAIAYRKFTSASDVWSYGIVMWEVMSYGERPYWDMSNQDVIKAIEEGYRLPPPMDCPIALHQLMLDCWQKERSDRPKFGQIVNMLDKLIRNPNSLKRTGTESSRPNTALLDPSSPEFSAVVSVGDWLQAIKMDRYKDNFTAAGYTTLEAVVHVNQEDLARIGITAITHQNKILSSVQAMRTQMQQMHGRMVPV
Sequence of UniProt Q9H2G2 (whole entry, looked up): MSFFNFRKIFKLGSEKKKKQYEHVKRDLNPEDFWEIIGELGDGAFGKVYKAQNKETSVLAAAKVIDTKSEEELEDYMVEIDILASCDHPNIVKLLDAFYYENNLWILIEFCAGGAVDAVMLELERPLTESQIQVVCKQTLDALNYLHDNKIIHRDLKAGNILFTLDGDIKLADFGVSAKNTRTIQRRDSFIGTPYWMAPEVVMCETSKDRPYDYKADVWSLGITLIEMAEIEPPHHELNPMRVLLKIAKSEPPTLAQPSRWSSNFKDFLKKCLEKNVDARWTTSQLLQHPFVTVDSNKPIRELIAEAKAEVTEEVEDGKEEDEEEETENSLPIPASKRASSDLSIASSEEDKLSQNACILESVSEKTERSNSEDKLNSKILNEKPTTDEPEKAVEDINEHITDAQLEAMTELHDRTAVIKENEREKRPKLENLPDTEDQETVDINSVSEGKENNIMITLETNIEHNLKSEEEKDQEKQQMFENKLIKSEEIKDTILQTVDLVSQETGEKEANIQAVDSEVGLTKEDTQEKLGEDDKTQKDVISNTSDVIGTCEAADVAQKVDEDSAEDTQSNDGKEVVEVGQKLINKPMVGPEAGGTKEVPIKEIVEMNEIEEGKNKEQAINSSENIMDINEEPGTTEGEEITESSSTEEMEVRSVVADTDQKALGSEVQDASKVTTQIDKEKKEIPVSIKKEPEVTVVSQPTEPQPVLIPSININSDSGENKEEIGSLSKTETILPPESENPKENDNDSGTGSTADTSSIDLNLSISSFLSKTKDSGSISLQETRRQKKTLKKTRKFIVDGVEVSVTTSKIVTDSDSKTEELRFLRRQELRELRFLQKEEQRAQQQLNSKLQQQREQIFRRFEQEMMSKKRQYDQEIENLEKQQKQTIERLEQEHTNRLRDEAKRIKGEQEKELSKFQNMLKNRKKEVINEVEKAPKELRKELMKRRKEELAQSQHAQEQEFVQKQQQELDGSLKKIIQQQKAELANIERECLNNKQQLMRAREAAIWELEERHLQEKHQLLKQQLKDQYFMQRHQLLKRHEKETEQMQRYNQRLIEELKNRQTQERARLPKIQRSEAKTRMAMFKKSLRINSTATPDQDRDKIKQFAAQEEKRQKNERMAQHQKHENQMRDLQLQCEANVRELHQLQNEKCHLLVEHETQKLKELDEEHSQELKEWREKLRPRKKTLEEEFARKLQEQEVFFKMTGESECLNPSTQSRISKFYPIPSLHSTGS

Study 1 — cell line: mouse MPNST tumor cells; method: high-content immunofluorescence imaging; refers to: nuclear SOX9; concentration: 10 µM; time: 12 h; setting: mean of 2 replicates; relative to: DMSO control; reading: higher = more nuclear SOX9
SMILES	nuclear SOX9 intensity
CCCCN1CCCCC1C(=O)Nc1c(C)cccc1C (stereo not drawn)	109 % of DMSO
CCOC(=O)c1ccc(OC(=O)CCCCCNC(=N)N)cc1	98.1 % of DMSO
CN1CCN(C(=O)CNC2CC2c2ccc(OCc3ccccc3)cc2)CC1 (stereo not drawn)	130 % of DMSO
Cc1nc(-c2cnn(C)c2-c2ccc(C(F)(F)F)cn2)c2c(N3CCC3)ncnn12	101 % of DMSO
CC(C)NCC(O)c1cc(O)cc(O)c1 (stereo not drawn)	102 % of DMSO
C=CC(N)CCC(=O)O (stereo not drawn)	93.3 % of DMSO
Cc1cnc(NC(=O)c2cc(S(=O)(=O)N(C)C)ccc2N2CCCC2)s1	94 % of DMSO
COc1cc(N)c(Cl)cc1C(=O)NC1CCN(CCCOc2ccc(F)cc2)CC1OC (stereo not drawn)	169 % of DMSO and 96 % of DMSO and 179 % of DMSO
Cc1cc(C)cc(NC(N)=Nc2ccccc2C(F)(F)F)c1	126 % of DMSO
Nc1ncnc2c1ncn2C1OC(COP(=O)(O)O)C(O)C1O (stereo not drawn)	101 % of DMSO
CN1CCN(c2nc(-c3ccc(C(=O)NC4(C(=O)NCC#N)CCCCC4)cc3)cs2)CC1	105 % of DMSO
O=C(Nc1ccccc1C(=O)NC1CCCCNC1=O)c1cc2ccccc2s1 (stereo not drawn)	120 % of DMSO
Oc1ccc(C2(c3ccccc3F)CCC(F)(F)CC2)cc1	104 % of DMSO
CC(=O)OCC(=O)[C@@]12OC(C)(C)O[C@@H]1C[C@H]1[C@@H]3C[C@H](F)C4=CC(=O)C=C[C@]4(C)[C@@]3(F)[C@@H](O)C[C@@]12C	67.8 % of DMSO

Study 2 — organism: Cryptosporidium parvum; method: time-kill; cells: HCT-8; strain: nanoluciferase-expressing; relative to: DMSO control
SMILES: CN(C(=O)c1ccn2ncc(-c3ccc(C(N)=O)cc3)c2c1)c1ccc(C#N)cn1
concentration	time	luminescence remaining
0.2469 µM	0 h	103% and 91.2% and 91.4% and 90.3% and 99.4% and 97.4% and 90.1% and 98%
0.2469 µM	8 h	104% and 103%
20 µM	48 h	13.5% and 12.3%
20 µM	72 h	10.8% and 11.2%
0.02743 µM	72 h	94.4% and 70.9%
0.02743 µM	0 h	90.3% and 103% and 98% and 91.4% and 91.2% and 90.1% and 97.4% and 99.4%
20 µM	24 h	38.1% and 41.2%
0.2469 µM	72 h	9.97% and 10.3%
0.00102 µM	48 h	71.5% and 110%
6.667 µM	48 h	12.7% and 9.37%
0.2469 µM	24 h	42% and 35.8%

Study 3 — observed: enzyme activity; mode: inhibitor; concentration: 0.5 µM; relative to: control
Target: Myosin light chain kinase, smooth muscle (MYLK, Homo sapiens, UniProt Q15746)
Sequence of UniProt Q15746 (whole entry, looked up): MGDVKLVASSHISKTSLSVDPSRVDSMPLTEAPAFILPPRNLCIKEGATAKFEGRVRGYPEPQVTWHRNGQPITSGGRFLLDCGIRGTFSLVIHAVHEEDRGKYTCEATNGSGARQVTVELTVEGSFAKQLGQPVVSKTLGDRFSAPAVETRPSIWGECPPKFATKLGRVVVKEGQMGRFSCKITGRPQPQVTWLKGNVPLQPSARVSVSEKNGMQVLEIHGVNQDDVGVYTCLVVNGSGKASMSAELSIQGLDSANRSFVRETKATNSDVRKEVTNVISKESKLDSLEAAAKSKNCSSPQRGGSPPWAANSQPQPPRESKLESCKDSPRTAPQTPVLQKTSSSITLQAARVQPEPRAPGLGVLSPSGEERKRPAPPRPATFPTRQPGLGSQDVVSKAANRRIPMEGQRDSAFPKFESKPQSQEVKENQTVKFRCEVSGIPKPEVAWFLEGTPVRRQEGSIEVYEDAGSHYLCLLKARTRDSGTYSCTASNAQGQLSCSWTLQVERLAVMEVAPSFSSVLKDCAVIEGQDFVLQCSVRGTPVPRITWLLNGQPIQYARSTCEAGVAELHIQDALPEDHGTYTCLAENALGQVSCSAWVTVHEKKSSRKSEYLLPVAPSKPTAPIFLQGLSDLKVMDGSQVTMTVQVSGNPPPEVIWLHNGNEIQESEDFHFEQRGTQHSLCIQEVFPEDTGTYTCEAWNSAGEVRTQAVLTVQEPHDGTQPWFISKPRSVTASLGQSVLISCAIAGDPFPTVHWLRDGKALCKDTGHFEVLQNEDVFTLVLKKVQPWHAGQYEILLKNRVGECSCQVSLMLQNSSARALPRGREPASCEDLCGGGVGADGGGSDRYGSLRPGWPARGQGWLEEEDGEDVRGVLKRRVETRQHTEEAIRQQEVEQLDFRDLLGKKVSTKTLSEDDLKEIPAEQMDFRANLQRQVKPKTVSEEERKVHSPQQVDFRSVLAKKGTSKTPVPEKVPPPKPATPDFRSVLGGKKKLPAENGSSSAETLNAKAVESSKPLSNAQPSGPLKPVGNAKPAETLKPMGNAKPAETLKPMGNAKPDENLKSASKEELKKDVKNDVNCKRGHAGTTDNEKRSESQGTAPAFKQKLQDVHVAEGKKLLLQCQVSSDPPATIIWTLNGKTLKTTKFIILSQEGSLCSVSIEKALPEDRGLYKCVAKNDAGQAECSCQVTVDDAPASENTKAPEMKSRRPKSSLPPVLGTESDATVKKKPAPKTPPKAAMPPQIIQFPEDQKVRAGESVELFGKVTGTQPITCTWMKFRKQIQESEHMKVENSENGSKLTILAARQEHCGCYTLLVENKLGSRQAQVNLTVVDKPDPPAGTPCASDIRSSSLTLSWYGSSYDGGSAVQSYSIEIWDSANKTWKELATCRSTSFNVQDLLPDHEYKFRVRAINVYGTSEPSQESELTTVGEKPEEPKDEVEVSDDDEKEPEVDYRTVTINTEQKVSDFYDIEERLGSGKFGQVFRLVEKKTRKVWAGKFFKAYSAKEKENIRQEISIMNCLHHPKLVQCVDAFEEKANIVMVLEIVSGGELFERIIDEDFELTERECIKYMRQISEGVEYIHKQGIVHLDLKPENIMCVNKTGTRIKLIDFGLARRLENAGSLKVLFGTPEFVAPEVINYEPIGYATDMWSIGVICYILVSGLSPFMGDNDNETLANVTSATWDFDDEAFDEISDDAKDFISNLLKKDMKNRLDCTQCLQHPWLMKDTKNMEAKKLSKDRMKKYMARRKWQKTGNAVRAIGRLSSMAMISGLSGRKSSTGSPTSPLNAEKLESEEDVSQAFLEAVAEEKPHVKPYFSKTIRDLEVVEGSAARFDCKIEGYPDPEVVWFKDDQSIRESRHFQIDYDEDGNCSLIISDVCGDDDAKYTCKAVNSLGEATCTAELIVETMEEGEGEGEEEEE
Structure (SMILES)	remaining activity [%]
C[C@@H](N)[C@H]1CC[C@H](C(=O)Nc2ccncc2)CC1	97.4
CC(C)(C)c1nc2c3cc[nH]c(=O)c3c3cc(F)ccc3c2[nH]1	9.03
FC(F)(F)c1ccc(/C=C/c2nc(COc3ccc(CCCCn4ccnn4)cc3)co2)cc1	94.8
O=C(c1ccccc1)c1ccc(N2CCOCC2)cc1O	91.8
COc1cc2c(N3CCN(C(=O)Nc4ccc(OC(C)C)cc4)CC3)ncnc2cc1OCCCN1CCCCC1	96.6
CC(C)n1cnc2c(Nc3cccc(Cl)c3)nc(NCCO)nc21	87.8
CCCCc1c(-c2ccc(O)cc2)[nH]c2nccnc12	101
N#C/C(=C(/N)SC1C=CC=CC1)c1cccc(C(O)c2ccncc2)c1 (stereo not drawn)	106
COc1cc2c(Nc3ccc(Br)cc3F)ncnc2cc1OCC1CCN(C)CC1	94.2
CNc1cc2c(Nc3cccc(Br)c3)ncnc2cn1	79.5
NC(=O)c1ccc(-c2nc(-c3ccc4c(c3)OCCO4)c(-c3ccccn3)[nH]2)cc1	99.2
O=Nc1c(-c2c(O)[nH]c3ccccc23)[nH]c2ccccc12	65
N#CC(c1ccnc(NCCc2cccnc2)n1)c1nc2ccccc2s1 (stereo not drawn)	97.9
O=C1NC(=O)/C(=C/c2ccc3c(c2)OC(F)(F)O3)S1	99.4
Clc1ccc(Nc2nnc(Cc3ccncc3)c3ccccc23)cc1	97.5
CC(C)N(CCC(=O)c1ccc2ccccc2c1)Cc1ccccc1	95.6
CCN(CC)CCCCN1c2ccccc2Oc2ccc(Cl)cc21	97
c1cc(-c2cnn3cc(-c4ccc(OCCN5CCCCC5)cc4)cnc23)ccn1	91.6
O=C(O)/C=C/c1cc(Br)c(Br)c(Br)c1Br	83.3
NC(=O)c1cccc(-c2cc(Nc3ccc(OC(F)(F)F)cc3)ncn2)c1	91.9
Nc1nc(Nc2ccc(S(N)(=O)=O)cc2)nn1C(=S)Nc1c(F)cccc1F	78.8

Study 4 — method: competition with immobilised ligand; concentration: 1 µM
SMILES: O=C(Nc1cccnn1)N1CC(C/C=C/c2cncc(Oc3ccc(C(F)(F)F)cn3)n2)C1
target	observed	remaining binding [%]
CAMK1G (Homo sapiens, UniProt Q96NX5)	cell-free assay	100
ACVRL1 (Homo sapiens, UniProt P37023)	binding	100
MARK1 (Homo sapiens, UniProt Q9P0L2)	cell-free assay	100
PIP5K1C (Homo sapiens, UniProt O60331)	cell-free assay	100
CDK18 (Homo sapiens, UniProt Q07002)	cell-free assay	100
SLK (Homo sapiens, UniProt Q9H2G2)	cell-free assay	100
PIK3CA (Homo sapiens, UniProt P42336, M1043I)	cell-free assay	100
PDGFRA (Homo sapiens, UniProt P16234)	cell-free assay	80
NUAK1 (Homo sapiens, UniProt O60285)	cell-free assay	100
Mast/stem cell growth factor receptor Kit, autoinhibited (KIT, Homo sapiens, UniProt P10721)	cell-free assay	78
CAMK1D (Homo sapiens, UniProt Q8IU85)	cell-free assay	100
HIPK4 (Homo sapiens, UniProt Q8NE63)	cell-free assay	92
CSNK1G3 (Homo sapiens, UniProt Q9Y6M4)	cell-free assay	100
FLT3 (Homo sapiens, UniProt P36888, F691L/ITD)	cell-free assay	76
KIT (Homo sapiens, UniProt P10721, V559D)	cell-free assay	64
MAP3K20 (Homo sapiens, UniProt Q9NYL2)	cell-free assay	100
PIP4K2C (Homo sapiens, UniProt Q8TBX8)	cell-free assay	100
FGFR3 (Homo sapiens, UniProt P22607)	cell-free assay	97
STK32B (Homo sapiens, UniProt Q9NY57)	cell-free assay	100
EPHA4 (Homo sapiens, UniProt P54764)	cell-free assay	100
